# Experimental data gathered from unrelated publications.
# Parts stem from different laboratories: compare values within a part only. Substitutions count along the parent as printed.

# Set 1
# Target: HLF, bZIP domain (human)
# Method: DHFR protein complementation
# Sample: yeast
# Setting: single substitutions, most at no-binding floor
# Baseline: wild-type JUN-FOS pair
# Direction: higher = stronger binding
# Starting sequence: JUN, bZIP domain (human); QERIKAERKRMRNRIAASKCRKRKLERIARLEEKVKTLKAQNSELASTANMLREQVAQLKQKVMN; partner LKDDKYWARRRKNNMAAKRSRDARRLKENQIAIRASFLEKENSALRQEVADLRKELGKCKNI
Substitution,binding fitness
T37M,-0.856 natural log
S43W,-1.5 natural log
E44V,-1.46 natural log
A46Y,-1.46 natural log
E44P,-1.53 natural log
L45A,-1.5 natural log
A40L,-1.4 natural log

# Set 2
# Target: Fragile X messenger ribonucleoprotein 1, C-terminal low-complexity region (Fmr1, Mus musculus, UniProt P35922)
# Method: RNA Bind-n-Seq
# Form: RNA
# Sample: in vitro
# Tested at: 200 nM
# Setting: whole 134-nt RNA, ends assumed
# Together with: 150 mM KCl
# Baseline: input library
# Direction: higher = stronger binding
Strand,log2 enrichment
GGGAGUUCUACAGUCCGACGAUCUAAUUGUGAUCUACAUUUUAAAAUAUCAAGAGAUCGUCUCAGUGCUUCUUCCCUUACAAUGGAGAGUUUUGCUUUUCUUUGGGCUGGAGGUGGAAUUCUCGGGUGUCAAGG,-0.599
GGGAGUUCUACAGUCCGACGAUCUCCUGUGCUACACAUCGUAUGUACCGAAUCGGGGUUUGGGGAAAGGGGUUUUUUUGGGGAAAGUAUUAUGUUACGCCGUUCGGAUCUGCAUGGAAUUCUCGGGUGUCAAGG,0.67
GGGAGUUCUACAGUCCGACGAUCUAGUAACAGGGGUGAAGAUGCCUUUUGUGAUCCUGAAGAUGAAUGGGAACCCGACAUUACAGAUGCACCAGUUUCUUCACUUUCUAGAAGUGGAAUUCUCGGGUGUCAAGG,-1.68
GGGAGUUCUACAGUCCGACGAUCGCAGGAAGUAAAAACAAAUGGAAAUGCUUCGGAUAGUGGCAGGAGUGGGGGUUGCUAAGGAAAGGGUGGGAUGGGAGUGGGUAAAGAGUUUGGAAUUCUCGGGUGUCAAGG,0.518
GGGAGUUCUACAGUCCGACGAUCUGGGAGGUGGAUUUUGUUUAUUUUUUUAGCUCAUUUCCAGGGGUGGGAAUUUUUUUUUAAUAUGUGUCAUGCAUAAAGUUGUUUUUGAAAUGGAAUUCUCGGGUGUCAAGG,0.227
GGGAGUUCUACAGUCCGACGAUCCUCAAGUCCUGUGCUACACAUCGUAUGUACCGAAUCGGGUUGGGGUUGGGUUGGAAAGUAUUAUGUUACGCCGUUCGGAUCUGCACUUCCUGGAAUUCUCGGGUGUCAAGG,0.372
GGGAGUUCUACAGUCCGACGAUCCAAGUCCUGUGCUACACAUCGUAUGUACCGAAUCGGGGUGGGGUGGGGAAAGGGGAAAGUAUUAUGUUACGCCGUUCGGAUCUGCACUUCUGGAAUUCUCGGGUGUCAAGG,1.2

# Set 3
# Target: RING finger protein unkempt homolog, zinc fingers 1-6, SBP tag (UNK, Homo sapiens, UniProt Q9C0B0, residues 30-357)
# Chain of UniProt Q9C0B0 (30-357, looked up): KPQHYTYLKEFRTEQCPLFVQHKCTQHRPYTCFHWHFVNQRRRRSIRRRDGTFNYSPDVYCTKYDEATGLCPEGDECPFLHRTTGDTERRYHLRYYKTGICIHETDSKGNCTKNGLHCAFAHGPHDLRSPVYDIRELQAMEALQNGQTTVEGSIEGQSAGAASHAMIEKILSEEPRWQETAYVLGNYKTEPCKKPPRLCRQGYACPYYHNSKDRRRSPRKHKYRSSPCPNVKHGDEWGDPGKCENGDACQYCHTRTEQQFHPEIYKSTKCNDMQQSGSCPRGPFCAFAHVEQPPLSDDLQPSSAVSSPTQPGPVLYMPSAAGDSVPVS
# Method: RNA Bind-n-Seq
# Form: RNA
# Sample: in vitro
# Tested at: 100 nM
# Setting: RNA with constant flanks, vertebrate orthologous sites, ends assumed
# Baseline: input RNA pool
# Direction: higher = stronger binding
Strand,bound/input enrichment [ratio]
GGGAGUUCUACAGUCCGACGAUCCUUGUUUCUAUUGGUCUGUAAAUGUGUCCUAAAAAAAUCAGAGUUUAUUUAUAAACAGAAUAGUUUAUUUAAAGAAGUCUUUCCCCAUCCAUUUUGUGGUUUGCAUUAAUUCUGUGUUUCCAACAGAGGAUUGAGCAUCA,0.267
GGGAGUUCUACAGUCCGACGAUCUACUUCCUCCAUUCUGAUUUGGAAACUGGUGAAAAAUGCCUGUGGUUAAAUUGUAAGUUUCCUCGCUAGCGUUAGGAGAGCCAGAAUUUUCCCACUGUUUAUUUUUAAUUUAAUAAAAGGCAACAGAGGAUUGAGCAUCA,0.288
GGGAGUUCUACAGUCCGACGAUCAGGGACGCUUUGAUGUAAAAAUUGAAGUUAAGAGCUGAUCACAAGCACAAAUCUUUCCCACUAGCCAUUUAAAAAGUUAAAAGAUACAAAAAACAAAAACCUACUAGUCUUGAAUAAACUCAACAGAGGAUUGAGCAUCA,2.66
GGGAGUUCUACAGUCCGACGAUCUUCAGGCACAACUGACUGGUUCACAGCAUUCCUUACAUAGUUAUCUAUCAAAUGCAAAUGUAGUUAAUUUUCAGGAAACAAGCAGACAGUCAUCUUUAUCCUGUAGCCCAGUUGGAGAGUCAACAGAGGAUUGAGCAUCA,1.45
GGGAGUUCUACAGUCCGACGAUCGUAAUGCAUUUUGUGACUUGGAUGUGGUCUGCGCGGGAAGCUGCUGGCCCCUCCACAACAUAUAAAAUUUUUGUCUUUUUUUAAGAAGUUAAAACUGAAUUUAAUUUACUAAAACUGUAACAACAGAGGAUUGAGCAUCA,0.281

# Other studies, line by line
Molecule,target,assay,system,conditions,how to read,quantity,value
"PhoQ, residues 284 288 289 292 302 303 SIHLQL","PhoP, residues 12 14 15 18 19 LHHVQ (Escherichia coli, UniProt P23836)","Sort-seq, item: YFP reporter",E. coli,"PhoQ-PhoP variant library, together with: 10 µM Mg2+","baseline: high Mg2+ state, higher = stronger signaling",fold induction,0.12
